Measurements from different studies.
Parts stem from different laboratories: compare values within a part only.

Study 1 — method: protein binding microarray; molecule type: double-stranded DNA, one strand shown; medium: in vitro; concentration: not given; baseline: not given; direction: higher = stronger binding
Target: Histone acetyltransferase KAT6A, winged helix 1, GST fusion (KAT6A, Homo sapiens, UniProt Q92794, residues 1-85)
Notes: 8-mer, flanks averaged, mean of 2 arrays, mostly near background
Construct (chain): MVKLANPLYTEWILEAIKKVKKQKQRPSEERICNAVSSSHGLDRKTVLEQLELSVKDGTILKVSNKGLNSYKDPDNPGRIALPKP
Oligonucleotide | E-score
GGATCCGA | 0.143
AGGTTTAT | -0.0221
GCACTTTA | -0.156
CATTTGGC | -0.227
CATATCAA | -0.168
AGGATGTA | -0.188

Study 2 — method: protein-binding microarray; molecule type: double-stranded DNA, one strand shown; medium: in vitro; concentration: 0.8 µM; notes: whole 60-bp probe, no competitor; direction: higher = stronger binding
Target: Centromere-binding protein 1, full length, N-terminal tag (CBF1, Saccharomyces cerevisiae, UniProt P17106, residues 1-351)
UniProt P17106, sequence (whole entry, looked up): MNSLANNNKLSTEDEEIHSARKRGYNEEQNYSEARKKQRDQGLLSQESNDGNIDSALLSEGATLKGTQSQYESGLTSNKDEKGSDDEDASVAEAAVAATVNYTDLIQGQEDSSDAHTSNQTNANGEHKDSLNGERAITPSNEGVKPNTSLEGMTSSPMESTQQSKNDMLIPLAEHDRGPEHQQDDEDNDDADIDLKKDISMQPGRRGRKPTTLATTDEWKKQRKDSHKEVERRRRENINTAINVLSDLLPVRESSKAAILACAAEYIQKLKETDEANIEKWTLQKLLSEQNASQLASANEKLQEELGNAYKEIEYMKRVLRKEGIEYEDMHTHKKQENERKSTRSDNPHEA
Oligonucleotide | fluorescence intensity
CTAGGTCTCTTTTTGCACGTTTTTGATGTTGCTTTCGTCTTGATTCGCTTGACGCTGCTG | 693 a.u.
GAAAGCCGAGCATCAAGCATGACCACTTCCTGGTAGGTCTTGATTCGCTTGACGCTGCTG | 595 a.u.
GAACGAAAGCAAACAATCGTGATATCTCTTGTATAGGTCTTGATTCGCTTGACGCTGCTG | 537 a.u.
TGTACGAAGCTATAATTCACCATTATAGTAGTTAGGGTCTTGATTCGCTTGACGCTGCTG | 511 a.u.

Study 3 — method: aptamer microarray, sandwich; molecule type: DNA with 2'F-ANA; medium: in vitro; concentration: 200 nM; with: Cy3 exosite-II aptamer, 400 nM; direction: higher = stronger binding; oligonucleotide: GGTTGGTGTGGTTGG
Target: Prothrombin, mature alpha-thrombin (F2, Homo sapiens, UniProt P00734)
Notes: whole 15-mer aptamer, many near background
Modification | mean fluorescence intensity [a.u.]
2'F-ANA at 2 3 4 12 14 15 | 361
2'F-ANA at 4 5 9 14 15 | 46.5
2'F-ANA at 1 2 4 5 8 9 12 13 14 | 87.7
2'F-ANA at 1 2 3 4 7 9 11 12 | 269
2'F-ANA at 3 4 7 8 9 11 13 14 | 296

Single results of other studies
Molecule | target | test | system | setting | how to read | measurement | result
PhoQ, residues 284 288 289 292 302 303 ASSHFY | PhoP, residues 12 14 15 18 19 AWHSL (Escherichia coli, UniProt P23836) | Sort-seq, refers to: YFP reporter | E. coli | PhoQ-PhoP variant library, with: 10 µM Mg2+ | baseline: high Mg2+ state, higher = stronger signaling | fold induction | 2.13

Excerpt of the above (study 3):
Modification | mean fluorescence intensity [a.u.]
2'F-ANA at 1 2 3 4 7 9 11 12 | 269
2'F-ANA at 4 5 9 14 15 | 46.5
2'F-ANA at 2 3 4 12 14 15 | 361
